Measured values from different studies.
Numbered parts are unrelated; each lists some results of a single study.

Block 1 — method: protein-binding microarray; molecule type: double-stranded DNA, one strand shown; sample: in vitro; tested at: 250 nM; notes: 60-bp whole probe; together with: salmon DNA 0.4 mg/ml; baseline: random background probes; reading: higher = stronger binding; shared flanks, not repeated: GCCTAGCAC … GTCTTGATTCGCTTGACGCTGCTG
Target: Interferon regulatory factor 7, full length, phosphomimetic (IRF7, Homo sapiens, UniProt Q92985, residues 1-503, S101K/S471D/S472D/S475D/S476D/S477D/S483D/S484D/S487D)
Target sequence (chain): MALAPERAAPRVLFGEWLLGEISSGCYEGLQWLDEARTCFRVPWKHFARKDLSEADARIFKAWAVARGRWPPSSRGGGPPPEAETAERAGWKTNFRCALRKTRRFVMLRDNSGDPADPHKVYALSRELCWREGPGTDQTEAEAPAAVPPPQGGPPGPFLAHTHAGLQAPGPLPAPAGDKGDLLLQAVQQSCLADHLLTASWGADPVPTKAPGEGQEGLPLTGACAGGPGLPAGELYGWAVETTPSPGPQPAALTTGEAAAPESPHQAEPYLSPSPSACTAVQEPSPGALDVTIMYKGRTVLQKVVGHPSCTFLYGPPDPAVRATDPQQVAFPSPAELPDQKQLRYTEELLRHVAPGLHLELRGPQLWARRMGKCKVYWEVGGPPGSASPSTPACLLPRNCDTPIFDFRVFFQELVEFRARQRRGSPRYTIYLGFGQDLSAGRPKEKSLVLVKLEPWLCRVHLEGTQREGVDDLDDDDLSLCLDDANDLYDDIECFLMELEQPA
Oligonucleotide	log fluorescence
GACGGTCTCGTTATCGGGACGTGCTAG	2.28 z-score
GACTTTTTACCTGTGGTGTAGTGCTAG	0.301 z-score
TTAGGTTTCGGGCCTGGGTTAGTGCTA	2.14 z-score
TAAGAACTGGGGTATCGATTAGTGCTA	0.559 z-score
TCACCTCTAGGTTCTCTGACTGTGCTA	-0.163 z-score
TTAGGACCGGGTCTCGGTTAGTGCTAG	2.76 z-score
TCAGTGATCAGTCTGATACTGTGCTAG	-0.773 z-score
TTAGAACTGAGTATCGATAAGTGCTAG	0.248 z-score
TACGGTATCGACACTGGGGACGTGCTA	-0.0568 z-score
TTAGAACAGAGTTTCGATTAGTGCTAG	7.92 z-score
ATAGATATCGGGTATCGATTAGTGCTA	0.626 z-score
GACGGTATACTACTGCTGACGTGCTAG	-0.448 z-score
ACTAATTTCCATTTTCTAAAGTGCTAG	2.52 z-score
TTAGGGATCGACTTTCGGTTAGTGCTA	1.98 z-score
TTAGGTATCCTTTTACTTTAGTGCTAG	1.55 z-score
GACGGTTTCGGTTCCGGAACGTGCTAG	13.2 z-score
TCATCTTTTCATTACTGACTGTGCTAG	1.01 z-score
ACCACTCTTGCTTTTTAGATGTGCTAG	0.00753 z-score
TCATTTATGGTTTTTTTACTGTGCTAG	0.692 z-score
TTAGATATCAGTATCGATTCGTGCTAG	3.01 z-score
GACGGACTTGGTCTCGGGACGTGCTAG	-0.176 z-score
TTAGATCTCGGGTTTCGATTAGTGCTA	6.88 z-score
TCACCCTTTGCTTTCCTACTGTGCTAG	0.892 z-score
TCAATTCTCCACTTGTGACTGTGCTAG	1.3 z-score
TCAAATTCCTGAAATCTCACTGTGCTA	0.186 z-score

Block 2 — method: RNA Bind-n-Seq; molecule type: RNA; sample: in vitro; tested at: 365 nM; baseline: no-protein control; reading: higher = stronger binding
Target: RNA binding protein fox-1 homolog 2, RRM domain, GST-SBP tag (RBFOX2, Homo sapiens, UniProt O43251-10, residues 100-194)
Notes: natural RNA segment, single round, ends assumed
Shared flanks, not repeated: GGGAGUUCUACAGUCCGACGAUC … UGGAAUUCUCGGGUGCCAA
Residues (chain): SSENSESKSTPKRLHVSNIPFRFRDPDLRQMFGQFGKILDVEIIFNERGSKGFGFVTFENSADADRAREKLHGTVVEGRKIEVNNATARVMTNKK
Oligonucleotide	RBNS enrichment (R)
CCCAGGAUCUCCUGCCAGCCCAGCUGGCCUGGCCCCCAGCUUCACCUCUGGGACCCCAGCUGCUCUAAGCCCAGGAUCUCUUUCCCCAAGGACCCAGCCCUCGCCUCUGC	0.326
UGGCCAUAUCCCAGAACACUACCUCAUCCACCUGGCAGAGGGAAUUUCUGCUUCAGCCACCAAGCAGUUGUCUGUGUCCCUCAUCCAGAGGGGGCCUUGGCCACCAACAG	0.389
AUUGGUGAGCAGCUAACUCGCUCAUUGAUGAGCAGCUAACUCUCACACACAUACACACACACACACACACACACACACCCCGACACCCUGCUUUUCAUACAGAACUAGCC	0.574
GGUUUACUGAAAUAGCCAAUUUGACUGGUGCUUAGACUAUUGUGCAGUAAACCUAAAAGGUAGUGGAGAAUUGCUUCCUGCUAGCAGGAAGCCUUCAUCUUCUUGAGUAC	0.166
GUUACACUGUUAGAACACUAUUUUCAGAAUCUGAAUGUAAUUUGUGUAAUAAAGUGUUUUCAGAGCAUUAGCUGUCAGUGUAUUUUCCAGUUUUUGCGUAUUUGCAGAUU	0.58
AAUGCAGGGAAUCCGAGCAGAACAAUCGGUUAGUGAAUUGAAUGGAAAUAAAUGCUUUAGUUAUAAAUGACCCCUGUACUCUGUAAGUUCCAAGAAAAAGAUCCUGGCAC	0.677
UUCCAAACAGAUUCGAGCAAUGCUUCAGUAGAGCUCUGCUCAAAGAAGAGGAUCUAUGUGCUGACCUCAGAAGAUGUAUAUGUUUACAUAAUUUAAUACAGAUUGAUGUU	0.523
GUUCAUCUUGUCUAUUUUUUCUCUUCAUGUUGUAACAAAAAGGAAAAAAGAAAAAAAAAUCCCAUCCCUUUUGUACAUAUGCCUGUAAAUUGUUUUAAAUACUUGAGCCU	2.24
GUUGGUGGGAGGGUUGGCACCUGCACACUCCAUCUCCUGCUCACCACCUGCCUCUAAUCUGAGCUGCAGCCUGGCUGGUCCUCCCAUUUCUAAAGCUGAAUGUCAAACAG	2.17
GAAACCUUACCCGAGAGGAGUUUCCUAUCUCUGGAUGGCAGUUGAUUCACUGUAAGUGUUCUGUGGCCUAACUAGUGAGAGAUGCUUCAAAUAAACUAAGUUUUUAUGAG	0.398
CCCAUAGGCUAAUACCCCUGGCACUGAUGGGCCCUGGGAAAUGUACAGUAGACCAGUUGCUCUUUGCUUCAGGUCCCUUUGAUGGAGUCUGUCAUCAGCCAGUGCUAACA	0.267
GUACUUUGCCUGGCGCUGUGCGCAAGGUCAGAAAACUUACUGCUAGUACCUAGAAACACACAAGGCUGCCCAGCCAAAUCUUAAUGUAAAGUAGCUAGAGCCAUGGAAGU	0.348

Block 3 — method: RNA Bind-n-Seq; molecule type: RNA; sample: in vitro; tested at: 20 nM; notes: 6-mer, flanks averaged, single round; together with: 150 mM KCl; baseline: input library; reading: higher = stronger binding
Target: TAR DNA-binding protein 43, full length, His tag (TARDBP, Homo sapiens, UniProt Q13148, residues 1-414)
Oligonucleotide	6-mer enrichment (R)
CGUAGC	0.773
UACAGU	0.625
AUUUGU	0.693
UCGGUA	0.74
AAAAUA	0.716
CGUCAG	0.834
CGUAUA	0.627
CUUCGC	0.586
CGUAGU	0.748
GAAGUA	0.87
GUUAAG	0.879
CAUGAA	0.739
AAGAGG	1.9
AAAGUC	0.564
GUUACC	0.643
UAUAUU	0.635
GGGCCU	1.9
GGUCCG	1.55
AGCUCC	0.662
CGGGUU	1.64
AAAAAA	0.928
UUACAU	0.574
UCACUC	0.548

Block 4 — method: protein binding microarray; molecule type: double-stranded DNA, one strand shown; sample: in vitro; tested at: not given; baseline: not given; reading: higher = stronger binding
Target: Histone acetyltransferase KAT6A, winged helix 1, GST fusion (KAT6A, Homo sapiens, UniProt Q92794, residues 1-85)
Notes: 8-mer, flanks averaged, mean of 2 arrays, mostly near background
Construct (chain): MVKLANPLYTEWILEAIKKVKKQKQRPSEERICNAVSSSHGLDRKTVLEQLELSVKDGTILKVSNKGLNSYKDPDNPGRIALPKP
Oligonucleotide	E-score
TCCATGCA	-0.018
AAAGCGAA	0.0469
CAGTATTA	-0.00234
AAATTACG	-0.0735
ACGGCTGC	0.318
GTTATTCA	-0.208
TGGGCAAA	-0.28
CGGCCCCA	0.219
AGGTGCAT	-0.247
CACCGTTC	0.0608
ACGTTTCG	-0.0707
AGTCCCCC	0.0105
AGCGCCTG	0.167
AACTCCCC	0.00386
GGGTCCAA	-0.0983
AGCAAAGG	-0.135
ACGCCCGG	0.282
AGAGTCGA	-0.197
AGCTGGCG	0.0442
AGCTTCCC	0.0329
GTGTAAAC	-0.161
ACGCACGA	0.116
AAAACCCG	0.265
GCGACGAC	0.138
CTTCCTGC	-0.154

Block 5 — method: protein-binding microarray; molecule type: hairpin DNA; sample: in vitro; tested at: not given; baseline: not given; reading: higher = stronger binding; shared flanks, not repeated: GAGGCCA … TGGCCTCACACTCTT
Target: POU domain, class 6, transcription factor 1, POU and homeodomain (POU6F1, Homo sapiens, UniProt Q14863, residues 311-611)
Notes: whole hairpin DNA, median over replicate spots
Construct (chain): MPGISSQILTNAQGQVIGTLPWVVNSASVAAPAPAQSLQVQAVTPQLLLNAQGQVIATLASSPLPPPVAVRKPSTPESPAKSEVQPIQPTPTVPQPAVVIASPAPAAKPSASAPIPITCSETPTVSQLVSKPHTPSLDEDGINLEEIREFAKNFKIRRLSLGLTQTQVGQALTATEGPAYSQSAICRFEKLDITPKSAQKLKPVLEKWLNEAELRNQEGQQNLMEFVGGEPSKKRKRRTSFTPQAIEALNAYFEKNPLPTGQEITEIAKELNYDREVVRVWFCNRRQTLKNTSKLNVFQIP
Oligonucleotide	median fluorescence [a.u.]
TTATGAGGTGCCTCCTGGCACCTCATAA	563
TAACGAGGTGCCTCCTGGCACCTCGTTA (5mC at 11)	593
TAGTTAGGTGCCTCCTGGCACCTAACTA (5mC at 33)	407
TCGTTAGGTGCCTCCTGGCACCTAACGA (5mC at 9 33)	354
TAATTGGGTGCCTCCTGGCACCCAATTA (5mC at 30)	1210
TAATGAGGAGCCTCCTGGCTCCTCATTA	2100
TCGTTAGGTGCCTCCTGGCACCTAACGA (5mC at 33)	376
TCATGAGGTGCCTCCTGGCACCTCATGA	391
GAATGAGGTGCCTCCTGGCACCTCATTC (5mC at 35)	433
TAATGACGTGCCTCCTGGCACGTCATTA (5mC at 14 28)	938
TAATGCGGTGCCTCCTGGCACCGCATTA	524
CAATTAGGTGCCTCCTGGCACCTAATTG (5mC at 8)	546
TAAGGAGGTGCCTCCTGGCACCTCCTTA	446
TACGTAGGTGCCTCCTGGCACCTACGTA (5mC at 32)	347
TAGTGAGGTGCCTCCTGGCACCTCACTA	356
TAATCAGGTGCCTCCTGGCACCTGATTA	692

Repeated from above (block 5):
Oligonucleotide	median fluorescence [a.u.]
TCATGAGGTGCCTCCTGGCACCTCATGA	391
GAATGAGGTGCCTCCTGGCACCTCATTC (5mC at 35)	433
TAATGACGTGCCTCCTGGCACGTCATTA (5mC at 14 28)	938
TAATGCGGTGCCTCCTGGCACCGCATTA	524
CAATTAGGTGCCTCCTGGCACCTAATTG (5mC at 8)	546
TAAGGAGGTGCCTCCTGGCACCTCCTTA	446
TACGTAGGTGCCTCCTGGCACCTACGTA (5mC at 32)	347
TAGTGAGGTGCCTCCTGGCACCTCACTA	356
